Assay results pooled from the literature.
Each line is one published result; not all experiments were run side by side. Numbers after ± are the reported error.

For C[C@@]1(c2cc(NC(=O)c3ccc(C#N)cn3)ccc2F)C=CSC(N)=N1, the terminal half-life was 11.7 h (elderly men and women, plasma; oral, 1 mg single dose).
CC(=O)Nc1ccc(C[C@H](NC(=O)[C@H](CO)NC(=O)[C@@H](Cc2cccnc2)NC(=O)[C@@H](Cc2ccc(Cl)cc2)NC(=O)[C@@H](Cc2ccc3ccccc3c2)NC(C)=O)C(=O)N[C@H](Cc2ccc(NC(C)=O)cc2)C(=O)N[C@@H](CC(C)C)C(=O)N[C@@H](CCCCNC(C)C)C(=O)N2CCC[C@H]2C(=O)N[C@H](C)C(N)=O)cc1 has a terminal half-life of 9.2 ± 6.3 h (healthy men, fasted, serum; oral, 20 mg single dose).
COC(=O)c1ccc2c(c1)NC(=O)/C2=C(\Nc1ccc(N(C)C(=O)CN2CCN(C)CC2)cc1)c1ccccc1 gave a terminal half-life of 13.7 h (healthy volunteers, plasma; oral, 150 mg, added: pirfenidone).
For C#C[C@]1(O)CC[C@H]2[C@@H]3CCC4=CC(=O)CC[C@@H]4[C@H]3CC[C@@]21C, the terminal half-life was 24.3 h (radioimmunoassay; HIV-infected women, no protease inhibitor, serum; oral, 0.35 mg, geometric mean).
O=C(c1cccnc1-c1ccncc1)N1CCC(O)(Cc2ccccc2)CC1 has a terminal half-life of 5.89 h (healthy Japanese adults, plasma; oral, 200 mg single dose).
COc1nnc2ccc(N3CCC(c4ccc(OCCN5CCN(C)C(=O)[C@H]5C)cc4)CC3)nn12 gave a terminal half-life of 2.16 h (patients, plasma; oral, 15 mg twice daily, single dose, monotherapy).
For C=CC(=O)NC1CCN(c2ncc3ncnc(Nc4ccc(Oc5ccc6c(c5)ncn6C)c(C)c4)c3n2)CC1, the terminal half-life was 1250 h (item: total radioactivity; healthy male volunteers, whole blood; oral solution, 60 mg, 14C-labelled).
For CS(=O)(=O)c1ccc([C@@H](O)[C@@H](CF)NC(=O)C(Cl)Cl)cc1, the terminal half-life was 2.33 ± 0.28 h (Arbor Acres chickens, plasma; oral, 20 mg/kg, added: quercetin 40 mg/kg pretreatment).

A few entries again:
For CS(=O)(=O)c1ccc([C@@H](O)[C@@H](CF)NC(=O)C(Cl)Cl)cc1, the terminal half-life was 2.33 ± 0.28 h (Arbor Acres chickens, plasma; oral, 20 mg/kg, added: quercetin 40 mg/kg pretreatment).
